Experimental data gathered from unrelated publications.
Each numbered part is a random draw from the data of one study; scales do not carry over between parts. Changes are numbered by the printed parent chain.
Chain of UniProt P16234 (whole entry, looked up): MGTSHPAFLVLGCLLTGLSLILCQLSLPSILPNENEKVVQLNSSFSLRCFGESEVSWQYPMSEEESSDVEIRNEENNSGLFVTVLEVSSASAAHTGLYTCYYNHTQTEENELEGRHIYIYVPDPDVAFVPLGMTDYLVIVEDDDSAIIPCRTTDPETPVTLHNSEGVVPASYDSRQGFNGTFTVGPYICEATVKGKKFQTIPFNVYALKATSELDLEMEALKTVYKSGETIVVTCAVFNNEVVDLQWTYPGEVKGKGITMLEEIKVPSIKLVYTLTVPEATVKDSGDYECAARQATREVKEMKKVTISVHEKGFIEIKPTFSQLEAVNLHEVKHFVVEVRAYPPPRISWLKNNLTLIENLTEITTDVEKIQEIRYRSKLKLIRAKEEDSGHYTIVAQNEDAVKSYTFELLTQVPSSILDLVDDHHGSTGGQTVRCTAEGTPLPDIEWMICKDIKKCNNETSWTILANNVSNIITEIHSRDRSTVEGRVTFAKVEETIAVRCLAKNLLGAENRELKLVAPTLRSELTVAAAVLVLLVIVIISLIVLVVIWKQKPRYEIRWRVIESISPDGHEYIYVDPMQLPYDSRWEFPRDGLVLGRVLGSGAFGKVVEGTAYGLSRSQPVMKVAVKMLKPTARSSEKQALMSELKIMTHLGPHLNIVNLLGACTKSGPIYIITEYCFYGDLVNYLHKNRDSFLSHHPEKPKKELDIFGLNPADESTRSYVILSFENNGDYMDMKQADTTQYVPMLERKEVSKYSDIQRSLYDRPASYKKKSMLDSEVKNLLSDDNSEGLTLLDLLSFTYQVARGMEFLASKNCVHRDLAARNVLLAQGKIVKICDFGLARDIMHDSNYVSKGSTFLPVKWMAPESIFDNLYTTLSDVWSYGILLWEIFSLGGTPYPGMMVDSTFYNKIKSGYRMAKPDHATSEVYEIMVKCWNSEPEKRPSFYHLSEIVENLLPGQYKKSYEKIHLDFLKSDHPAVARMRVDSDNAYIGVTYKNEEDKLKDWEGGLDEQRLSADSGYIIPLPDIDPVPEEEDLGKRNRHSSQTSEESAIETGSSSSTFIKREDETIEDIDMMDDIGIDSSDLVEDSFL

Series 1
Target: Phosphate system positive regulatory protein PHO4, full length, GST-tagged (PHO4, Saccharomyces cerevisiae, UniProt P07270, residues 1-312)
Chain of UniProt P07270 (whole entry, looked up): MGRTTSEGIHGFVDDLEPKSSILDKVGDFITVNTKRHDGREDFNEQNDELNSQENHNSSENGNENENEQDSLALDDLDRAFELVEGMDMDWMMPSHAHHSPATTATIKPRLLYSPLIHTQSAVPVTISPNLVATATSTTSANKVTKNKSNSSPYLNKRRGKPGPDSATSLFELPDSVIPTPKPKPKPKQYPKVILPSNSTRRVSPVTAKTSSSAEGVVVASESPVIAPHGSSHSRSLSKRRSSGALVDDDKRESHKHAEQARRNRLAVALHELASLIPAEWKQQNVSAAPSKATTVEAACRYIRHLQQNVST
Technique: competition protein-binding microarray
Molecule type: double-stranded DNA, one strand shown
Matrix: in vitro
Tested at: 2 µM
Notes: whole 60-bp probe, lowest competitor level
Together with: Cbf1 competitor, 0.05 µM
Reading: higher = stronger binding
Constant ends, left off below: … GTCTTGATTCGCTTGACGCTGCTG
| Oligonucleotide | fluorescence intensity |
| --- | --- |
| AAAGCGGTAATTTGTTGTGTGGGTGCAGATATCTAT | 5120 a.u. |
| CTTTCCCGATCTTGACTCGTGGGTGTAGCACATTTG | 11500 a.u. |
| TGTTGCCACATAATTGAGGCATGTTAGCAGAGCATT | 4580 a.u. |
| CGCGAACGAATCCATCACGCAGCCTCGCCTTGAGAC | 5720 a.u. |
| TGCGCAACAACTTGTCACTCCACTTTATGTCTAGAA | 3450 a.u. |
| TGCGCAACAACTTGGAAAGTGGGTGTATGTCTAGAA | 4150 a.u. |
| AAATGGCCAATATTCTACGTGCTTTTTATTAGAAAC | 7050 a.u. |
| TTATGAACTGCTACCCACGTGTAACCAATTTTTTTA | 18300 a.u. |

Series 2
Target: CCNB2, cyclin fold, Cln2 fusion (human)
Technique: yeast growth competition, sequencing
Matrix: yeast
Notes: weak parent motif
Relative to: not given
Reading: higher = stronger binding
Starting sequence: GMNC docking peptide (human); KNAKRNLSSEFAN; partner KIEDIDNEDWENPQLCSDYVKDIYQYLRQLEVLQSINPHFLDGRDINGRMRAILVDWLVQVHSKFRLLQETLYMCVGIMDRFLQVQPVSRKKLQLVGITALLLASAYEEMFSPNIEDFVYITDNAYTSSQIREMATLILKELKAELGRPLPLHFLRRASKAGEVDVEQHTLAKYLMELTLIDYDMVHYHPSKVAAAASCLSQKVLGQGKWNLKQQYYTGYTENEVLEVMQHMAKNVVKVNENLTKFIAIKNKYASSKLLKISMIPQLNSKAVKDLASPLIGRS
| Substitution | normalised enrichment score |
| --- | --- |
| KNAVRNLSSEFAN [K4V] | 0.415 |
| KNAYRNLSSEFAN [K4Y] | 0.139 |
| KNAMRNLSSEFAN [K4M] | -0.195 |
| KNAKRLLSSEFAN [N6L] | -0.159 |
| KKAKRNLSSEFAN [N2K] | 0.827 |
| KNAQRNLSSEFAN [K4Q] | 0.147 |
| KNAKRNLSSWFAN [E10W] | 0.716 |
| KNAKRNLSSEFIN [A12I] | 0.501 |

Series 3
Target: Protein max, full length (MAX, Homo sapiens, UniProt P61244-2, residues 1-151)
Technique: protein-binding microarray
Molecule type: double-stranded DNA, one strand shown
Matrix: in vitro
Tested at: not given
Notes: k-mer, scored over probes, only values ≥0.25
Reading: higher = stronger binding
| Oligonucleotide | E-score |
| --- | --- |
| ACGTGGCA | 0.45 |
| CGTGCCTA | 0.29 |
| CATGGCTA | 0.339 |
| CATGTCCG | 0.296 |
| GAACACGA | 0.338 |
| CAGGTGGA | 0.391 |
| CATGCAAA | 0.26 |
| CAAGCACG | 0.381 |

Mixed results
| Structure (SMILES) | target | assay | setting | scale | quantity | result |
| --- | --- | --- | --- | --- | --- | --- |
| O=c1c(-c2ccc(F)cc2)c(-c2ccncc2)[nH]n1-c1ccc(Cl)cc1 | Platelet-derived growth factor receptor alpha (PDGFRA, Homo sapiens, UniProt P16234) | enzyme activity, inhibitor | 0.5 µM | relative to: control | remaining activity | 103% |

Repeated from above (series 3):
| Oligonucleotide | E-score |
| --- | --- |
| CAGGTGGA | 0.391 |
| CATGCAAA | 0.26 |
